Measurements of several laboratories.
Numbered parts are unrelated; each lists some results of a single study. Changes are numbered by the printed parent chain.

Block 1 — target: inorganic phosphate, free oxyanion; technique: microfluidic competitive inhibition; medium: in vitro, cell-free expressed; tested at: not given; reading: lower = stronger binding; quantity: phosphate dissociation constant
Setting: derived from inhibition constants, unchanged parent 615000 nM
Parent: PafA, mature enzyme, eGFP fusion (Elizabethkingia meningoseptica, UniProt Q9KJX5); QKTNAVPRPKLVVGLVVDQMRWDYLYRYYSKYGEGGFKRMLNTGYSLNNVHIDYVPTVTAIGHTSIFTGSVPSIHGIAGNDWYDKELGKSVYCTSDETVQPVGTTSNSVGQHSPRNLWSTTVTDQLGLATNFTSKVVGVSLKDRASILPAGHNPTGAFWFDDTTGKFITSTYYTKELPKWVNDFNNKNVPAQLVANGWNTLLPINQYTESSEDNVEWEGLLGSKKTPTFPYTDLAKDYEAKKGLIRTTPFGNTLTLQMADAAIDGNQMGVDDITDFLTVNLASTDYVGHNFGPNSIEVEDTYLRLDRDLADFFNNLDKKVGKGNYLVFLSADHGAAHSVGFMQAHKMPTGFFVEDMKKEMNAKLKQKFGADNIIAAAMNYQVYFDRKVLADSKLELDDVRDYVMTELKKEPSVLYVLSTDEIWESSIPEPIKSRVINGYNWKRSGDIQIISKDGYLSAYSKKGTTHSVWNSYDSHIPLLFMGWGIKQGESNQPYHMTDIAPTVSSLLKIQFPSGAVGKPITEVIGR
Substitution = T171V; value = 611 µM
Substitution = G165V; value = 353 µM
Substitution = K2G; value = 535 µM
Substitution = S433G; value = 445 µM
Substitution = Y325V; value = 656 µM
Substitution = F167G; value = 618 µM
Substitution = I263G; value = 391 µM
Substitution = Q125V; value = 511 µM
Substitution = F132V; value = 510 µM
Substitution = G222V; value = 486 µM
Substitution = G463A; value = 305 µM
Substitution = F184V; value = 597 µM
Substitution = G165A; value = 524 µM
Substitution = H63V; value = 93.9 µM
Substitution = I524V; value = 594 µM
Substitution = G14A; value = 636 µM
Substitution = P72V; value = 518 µM
Substitution = V320A; value = 551 µM
Substitution = Q343G; value = 443 µM
Substitution = I374G; value = 566 µM
Substitution = S338V; value = 498 µM
Substitution = V435G; value = 524 µM
Substitution = S338G; value = 464 µM
Substitution = G33A; value = 630 µM
Substitution = Y45G; value = 509 µM

Block 2 — target: CCNB2, cyclin fold, Cln2 fusion (human); technique: yeast growth competition, sequencing; medium: yeast; setting: strong parent motif; reference: not given; reading: higher = stronger binding; quantity: normalised enrichment score
Parent: viral docking peptide; YKVKRRLVFGADD; partner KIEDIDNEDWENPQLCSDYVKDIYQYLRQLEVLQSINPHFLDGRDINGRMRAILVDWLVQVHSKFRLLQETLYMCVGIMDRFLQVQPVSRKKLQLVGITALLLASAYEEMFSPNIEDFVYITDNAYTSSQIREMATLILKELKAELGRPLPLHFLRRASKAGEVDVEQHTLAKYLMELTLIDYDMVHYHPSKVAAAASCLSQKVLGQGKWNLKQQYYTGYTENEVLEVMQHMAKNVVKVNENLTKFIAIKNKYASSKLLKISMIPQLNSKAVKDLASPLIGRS
Substitution = YKVHRRLVFGADD [K4H]; value = 0.673
Substitution = YKVKRRCVFGADD [L7C]; value = -0.0457
Substitution = YKVKRRLSFGADD [V8S]; value = 3.81
Substitution = YKVKPRLVFGADD [R5P]; value = -0.286
Substitution = YKVKRRLMFGADD [V8M]; value = 1.43
Substitution = YKVKRRLVFGAND [D12N]; value = 1.45
Substitution = YNVKRRLVFGADD [K2N]; value = 2.36
Substitution = YKVKQRLVFGADD [R5Q]; value = 1.09
Substitution = YKVKVRLVFGADD [R5V]; value = 0.993
Substitution = AKVKRRLVFGADD [Y1A]; value = 1.36
Substitution = YKKKRRLVFGADD [V3K]; value = 0.653
Substitution = YMVKRRLVFGADD [K2M]; value = 2.07
Substitution = YKVKRRLVKGADD [F9K]; value = 0.488
Substitution = YKVKDRLVFGADD [R5D]; value = 0.133
Substitution = YKVKRRAVFGADD [L7A]; value = 0.18
Substitution = YKVKRRLVFGAHD [D12H]; value = 0.891
Substitution = YKVKRRKVFGADD [L7K]; value = 0.859
Substitution = YKVKGRLVFGADD [R5G]; value = 0.298
Substitution = YKVKRKLVFGADD [R6K]; value = 1.78
Substitution = YKVKRRLVNGADD [F9N]; value = 0.773
Substitution = YKQKRRLVFGADD [V3Q]; value = 0.854
Substitution = YKVKRDLVFGADD [R6D]; value = 0.538
Substitution = YKEKRRLVFGADD [V3E]; value = 0.523
Substitution = YKVKRRLHFGADD [V8H]; value = 1.32
Substitution = YKVKRRSVFGADD [L7S]; value = 1.04

Block 3 — technique: competition protein-binding microarray; molecule type: double-stranded DNA, one strand shown; medium: in vitro; tested at: 2 µM; with: Pho4 competitor, 0.05 µM; reading: higher = stronger binding; quantity: fluorescence intensity; shared flanks, not repeated: … GTCTTGATTCGCTTGACGCTGCTG
Target: Centromere-binding protein 1, full length, His-tagged (CBF1, Saccharomyces cerevisiae, UniProt P17106, residues 1-351)
Chain of UniProt P17106 (whole entry, looked up): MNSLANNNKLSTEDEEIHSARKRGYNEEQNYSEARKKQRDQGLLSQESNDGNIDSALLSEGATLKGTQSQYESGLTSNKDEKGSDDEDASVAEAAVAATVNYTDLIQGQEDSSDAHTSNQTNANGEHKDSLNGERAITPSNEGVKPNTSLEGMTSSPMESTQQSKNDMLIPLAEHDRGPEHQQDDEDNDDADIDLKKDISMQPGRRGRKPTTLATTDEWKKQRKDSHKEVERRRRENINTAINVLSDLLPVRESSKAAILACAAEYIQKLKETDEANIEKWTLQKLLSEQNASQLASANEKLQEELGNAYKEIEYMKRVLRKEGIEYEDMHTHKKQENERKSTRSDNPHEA
Setting: whole 60-bp probe, lowest competitor level
Sequence = GTCTTGTCTCATTGAGCTGTGGGTGTCCCCACTTCA; value = 62.6 a.u.
Sequence = TCGCCGGACCAAGTTTCCGTGATGGTCGTTCTAGGA; value = 67.2 a.u.
Sequence = AATTAGAACCCATGTCCCGTGGAAGCGTTTTAAAAG; value = 91.5 a.u.
Sequence = CTCCCACCAGAACGTCACCTGCTCTCTTAATCAATG; value = 337 a.u.
Sequence = ATGAAGACGGAATCGCACGGGCCTATTACCTCGGGG; value = 61.8 a.u.
Sequence = TGCGCAACAACTTGGAAGGTGGGTGTATGTCTAGAA; value = 54.6 a.u.
Sequence = AAAGCGGTAATTTTTCACGTGGCCTCACATATCTAT; value = 1150 a.u.
Sequence = TCCCTGTTTATTTCACACGTCGCTTTGACTGCATAC; value = 77.3 a.u.

Block 4 — read-out: phage display binding; technique: phage display panning NGS; molecule type: peptide; setting: panning round 3; reference: OGT-panned over input library; quantity: fold enrichment
Target: UDP-N-acetylglucosamine--peptide N-acetylglucosaminyltransferase 110 kDa subunit (OGT, Homo sapiens, UniProt O15294)
Construct (O15294 1-1046): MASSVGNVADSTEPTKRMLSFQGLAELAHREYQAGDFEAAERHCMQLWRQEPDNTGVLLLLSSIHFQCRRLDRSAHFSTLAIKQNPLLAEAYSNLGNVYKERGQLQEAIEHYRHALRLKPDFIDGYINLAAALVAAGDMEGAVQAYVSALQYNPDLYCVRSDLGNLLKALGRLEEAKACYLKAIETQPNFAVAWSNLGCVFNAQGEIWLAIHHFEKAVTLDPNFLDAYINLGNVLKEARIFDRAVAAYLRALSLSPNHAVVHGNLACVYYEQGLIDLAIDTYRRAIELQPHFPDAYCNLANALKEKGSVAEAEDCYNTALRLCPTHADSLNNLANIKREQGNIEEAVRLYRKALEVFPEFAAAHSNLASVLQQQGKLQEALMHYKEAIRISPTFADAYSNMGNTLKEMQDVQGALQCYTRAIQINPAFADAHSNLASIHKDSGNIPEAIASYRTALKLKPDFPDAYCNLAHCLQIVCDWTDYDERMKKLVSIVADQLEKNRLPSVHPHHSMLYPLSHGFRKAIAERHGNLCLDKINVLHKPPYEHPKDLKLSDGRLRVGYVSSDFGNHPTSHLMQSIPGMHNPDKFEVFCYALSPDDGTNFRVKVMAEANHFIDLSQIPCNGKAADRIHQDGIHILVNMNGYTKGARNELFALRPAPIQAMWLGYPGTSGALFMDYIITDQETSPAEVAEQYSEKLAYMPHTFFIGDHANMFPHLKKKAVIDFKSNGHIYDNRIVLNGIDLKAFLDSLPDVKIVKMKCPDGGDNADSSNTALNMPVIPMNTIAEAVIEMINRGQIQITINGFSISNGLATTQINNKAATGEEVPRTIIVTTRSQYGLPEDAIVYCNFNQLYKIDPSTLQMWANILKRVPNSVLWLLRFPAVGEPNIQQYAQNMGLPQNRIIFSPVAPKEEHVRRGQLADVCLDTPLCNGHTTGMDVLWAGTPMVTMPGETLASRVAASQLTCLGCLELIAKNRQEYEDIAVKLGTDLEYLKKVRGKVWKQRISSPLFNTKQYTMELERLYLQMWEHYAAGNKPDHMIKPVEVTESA
Molecule = EALFRYTPFYQIDI; value = 3.16
Molecule = VKTYEPFYLIDMNRQ; value = 1.62
Molecule = TYKNDRYLPFYPIII; value = 3.86
Molecule = IYLPIYQIQAQWPFK; value = 3.62
Molecule = VVQQEYRPRYQISFK; value = 2.01

A few entries again (block 4):
Molecule = EALFRYTPFYQIDI; value = 3.16
Molecule = VKTYEPFYLIDMNRQ; value = 1.62
Molecule = TYKNDRYLPFYPIII; value = 3.86
Molecule = IYLPIYQIQAQWPFK; value = 3.62
Molecule = VVQQEYRPRYQISFK; value = 2.01
